Measurements pooled from the literature.
Every numbered part comes from another study and shows a few of its results, in no order.
UniProt O00506, sequence (whole entry, looked up): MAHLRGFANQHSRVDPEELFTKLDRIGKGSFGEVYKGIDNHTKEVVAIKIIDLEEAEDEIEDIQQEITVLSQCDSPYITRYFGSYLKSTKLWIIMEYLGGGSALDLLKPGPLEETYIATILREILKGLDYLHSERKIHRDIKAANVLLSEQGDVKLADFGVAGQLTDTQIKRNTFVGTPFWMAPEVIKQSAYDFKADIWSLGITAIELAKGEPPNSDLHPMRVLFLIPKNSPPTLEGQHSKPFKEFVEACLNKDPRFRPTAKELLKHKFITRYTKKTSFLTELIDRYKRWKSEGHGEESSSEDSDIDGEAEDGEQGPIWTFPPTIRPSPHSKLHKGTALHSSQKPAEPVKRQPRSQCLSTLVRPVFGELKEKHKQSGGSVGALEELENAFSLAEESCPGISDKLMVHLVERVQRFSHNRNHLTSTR
UniProt P47898, sequence (whole entry, looked up): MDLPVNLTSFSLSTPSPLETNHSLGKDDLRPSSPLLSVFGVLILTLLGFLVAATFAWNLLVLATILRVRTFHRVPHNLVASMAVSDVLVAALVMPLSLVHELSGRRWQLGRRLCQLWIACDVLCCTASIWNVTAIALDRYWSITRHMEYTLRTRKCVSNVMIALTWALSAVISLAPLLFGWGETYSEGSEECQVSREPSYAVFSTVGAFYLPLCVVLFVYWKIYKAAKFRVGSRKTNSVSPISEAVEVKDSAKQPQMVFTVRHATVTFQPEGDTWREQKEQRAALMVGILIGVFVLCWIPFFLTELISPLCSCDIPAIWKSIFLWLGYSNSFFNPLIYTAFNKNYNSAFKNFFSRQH

Set 1
Target: Sal-like protein 4, full length isoform B (SALL4, Homo sapiens, UniProt Q9UJQ4-2, residues 1-616)
Method: universal PBM
Molecule type: double-stranded DNA, one strand shown
Medium: in vitro
Concentration: not given
Setting: 8-mer, flanks averaged, mean of replicates
Reading: higher = stronger binding
Residues (chain): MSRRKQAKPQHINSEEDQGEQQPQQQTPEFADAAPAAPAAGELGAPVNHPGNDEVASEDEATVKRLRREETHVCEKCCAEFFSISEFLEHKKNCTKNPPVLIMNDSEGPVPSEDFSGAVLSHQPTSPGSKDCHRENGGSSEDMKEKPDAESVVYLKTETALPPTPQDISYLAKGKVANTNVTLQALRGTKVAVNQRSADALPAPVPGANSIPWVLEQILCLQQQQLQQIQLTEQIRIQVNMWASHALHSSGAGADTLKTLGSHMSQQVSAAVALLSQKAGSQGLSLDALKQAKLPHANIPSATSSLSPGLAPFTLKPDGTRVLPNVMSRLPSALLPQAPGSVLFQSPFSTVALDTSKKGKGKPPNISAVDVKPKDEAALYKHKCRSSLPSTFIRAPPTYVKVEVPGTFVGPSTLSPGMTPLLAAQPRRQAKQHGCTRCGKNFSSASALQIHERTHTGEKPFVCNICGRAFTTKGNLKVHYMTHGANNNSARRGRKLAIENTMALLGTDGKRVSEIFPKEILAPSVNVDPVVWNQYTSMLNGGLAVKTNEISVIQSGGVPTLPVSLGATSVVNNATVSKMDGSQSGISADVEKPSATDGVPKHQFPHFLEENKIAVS
| Strand | E-score |
| --- | --- |
| CCACGCAG | -0.0949 |
| CAAAGCCG | 0.0187 |
| ATAAAAAG | 0.307 |
| CCACCAAG | -0.276 |
| ACCCCGCT | -0.267 |
| GACTATCC | -0.237 |
| CCGGGGAC | -0.282 |
| ATCGCAAG | -0.145 |

Set 2
Target: Interferon regulatory factor 5, full length, phosphomimetic (IRF5, Homo sapiens, UniProt Q13568-2, residues 1-514, K96S/S451D/S453D/S456D/S462D)
Method: protein-binding microarray
Molecule type: double-stranded DNA, one strand shown
Medium: in vitro
Concentration: 250 nM
Setting: 60-bp whole probe
Together with: salmon DNA 0.4 mg/ml
Reference: random background probes
Reading: higher = stronger binding
Constant ends, left off below: GCCTAGCAC … GTCTTGATTCGCTTGACGCTGCTG
| Strand | log fluorescence |
| --- | --- |
| TTAGGTTGCCTTATCCTTTAGTGCTAG | 0.0309 z-score |
| TTAGATCTTAGTTTCGATTAGTGCTAG | 10.1 z-score |
| TCAGTTTTACAATTTGCACTGTGCTAG | 0.74 z-score |
| TCATCTGTCATGTTTGTCACTGTGCTA | 0.562 z-score |
| TCAAGCATGGATCTGGGACTGTGCTAG | -0.613 z-score |
| GACGAACTGCTTCTCCTGACGTGCTAG | -0.326 z-score |
| TTAGCTTTCGGGTTTCGATTAGTGCTA | 10.5 z-score |
| ATAGGTATCGGGACTGGGTTAGTGCTA | 1.38 z-score |

Further values, each from its own experiment
| SMILES | target | observed | mode | concentration | reference | endpoint | result |
| --- | --- | --- | --- | --- | --- | --- | --- |
| COc1cc2nccc(Oc3ccc(NC(=S)NC(=O)c4ccccc4C)cc3)c2cc1OC | STK25 (Homo sapiens, UniProt O00506) | enzyme activity | inhibitor | 0.5 µM | control | remaining activity | 103% |
| COc1cc(-c2cn(C3CCc4c(F)cccc4N(CC(F)(F)F)C3=O)nn2)ccc1-n1cnc(C)c1 (stereo not drawn) | HTR5A (Homo sapiens, UniProt P47898) | ligand displacement | – | 10 µM | – | inhibition | 7.61% |
